{"data": "Measurements collected from several papers", "note": "Protocols differ between the studies behind these lines. Several values in a cell are separate wells, animals, samples, runs or records."}
{"Compound": "O=C1/C(=C/c2ccc(O)c(Br)c2)CCC/C1=C\\c1ccc(O)c(Br)c1", "cell line": "HCT-8", "assay": "luminescent ATP cell viability", "setting": "24 h", "quantity": "CC50", "value": "91 µM"}
{"Compound": "NC[C@H]1O[C@H](O[C@H]2[C@H](O)[C@@H](O[C@H]3O[C@H](Cn4cc(CNC(=S)Nc5ccc6c(c5)C(=O)OC65c6ccc(O)cc6Oc6cc(O)ccc65)nn4)[C@@H](O)[C@H](N)[C@H]3O)[C@H](N)C[C@@H]2N)[C@H](O)[C@@H](O)[C@@H]1O", "cell line": "C2C12", "assay": "flow cytometry", "setting": "5 µM, 24 h", "quantity": "cells with uptake", "value": "10% and ~10%"}
{"Compound": "O=C(OC[C@@]1(O)C(=O)C=C[C@H]2[C@@H]1[C@H]1C=C[C@@H]2C(=O)[C@]1(O)COC(=O)c1ccccc1)c1ccccc1", "cell line": "K562", "assay": "cell growth or viability, MTT", "quantity": "IC50", "value": "60.9 µM"}
{"Compound": "Cc1nc(Nc2ncc(C(=O)Nc3c(C)cccc3Cl)s2)cc(N2CCN(C(=O)CCOCCNC(=O)CN)CC2)n1", "cell line": "K562", "assay": "cell growth or viability, CCK-8", "setting": "750 pM", "quantity": "viability", "value": "90% and 87%"}
{"Compound": "CC(C)C[C@@H]1NC(=O)[C@@H](CC(C)C)NC(=O)[C@H](CCN)NC(=O)[C@@H](NC(=O)[C@H](CCN)NC(=O)[C@@H](N)[C@@H](C)O)CCNC(=O)[C@H]([C@@H](C)O)NC(=O)[C@H](CCN)NC(=O)[C@H](CCN)NC1=O", "cell line": "sheep erythrocytes", "setting": "512 µg/mL, 37 °C", "how to read": "reference: Triton X-100", "quantity": "hemolysis", "value": "< 5%"}
{"Compound": "COc1ccc(O)cc1-c1c[nH]c2ncc(-c3cncc(C(=O)N(C)C)c3)cc12", "cell line": "Ba/F3 parental, IL-3-dependent", "setting": "concentration not given", "quantity": "cytotoxicity", "value": "not toxic"}
{"Compound": "Nc1ncnc2c1ncn2[C@@H]1O[C@H](CSCc2ccc3ccccc3c2Br)[C@@H](O)[C@H]1O", "cell line": "Calu-3", "setting": "concentration not given", "quantity": "cytotoxicity", "value": "not toxic"}
{"Compound": "N[C@@H](CNC(=O)N[C@@H](CS)C(=O)NCC(=O)O)C(=O)O", "cell line": "RPMI-2650", "assay": "immunoblot", "setting": "0.5 mM, 24 h", "quantity": "ZO-1 level", "value": "no effect"}
{"Compound": "N=C(N)c1ccc(OCCCOc2ccc(C(=N)N)cc2)cc1", "cell line": "Calu-3", "setting": "48 (unit not given)", "quantity": "CC50", "value": "> 500 µM"}
{"Compound": "COc1cc2nc(NC3CCN(Cc4ccc(C(N)=O)cc4)CC3)nc(Oc3c(C)cc(C#N)cc3C)c2cc1OC", "cell line": "MT4", "assay": "cell growth or viability, MTT", "quantity": "CC50", "value": "15.5 µM"}
{"Compound": "C=CS(=O)(=O)Oc1ccc(OC)c(-c2c[nH]c3ncc(-c4cncc(C(=O)N(C)C)c4)cc23)c1", "cell line": "Ba/F3 parental, IL-3-dependent", "setting": "concentration not given", "quantity": "cytotoxicity", "value": "not toxic"}
{"Compound": "O=C1NC2(CC2)COc2ncc(F)cc2[C@H]2COCCN2c2ccn3ncc1c3n2", "cell line": "CHL", "setting": "75 µg/mL, 4 h, with rat liver S9", "quantity": "structural aberrations", "value": "0.3%"}
{"Compound": "CC1(C)C(NC(=O)C(=NOC2(C(=O)O)CC2)c2csc(N)n2)C(=O)N1OS(=O)(=O)O (centres unmarked)", "cell line": "PANC-1", "assay": "cell growth or viability", "quantity": "CC50", "value": "> 100 µM"}
{"Compound": "CCc1c(-c2ccc3[nH]ncc3c2)cnc(N)c1-c1ccc(O)cc1", "cell line": "CHP-212 resistant sublines (heterozygous USP7 V517F)", "assay": "cell viability", "setting": "12.5 µM", "quantity": "viability", "value": "87.2% and 85.7%"}
{"note": "Repeated from above:"}
{"Compound": "COc1ccc(O)cc1-c1c[nH]c2ncc(-c3cncc(C(=O)N(C)C)c3)cc12", "cell line": "Ba/F3 parental, IL-3-dependent", "setting": "concentration not given", "quantity": "cytotoxicity", "value": "not toxic"}
